# Measurements gathered from unrelated publications.
# Parts stem from different laboratories: compare values within a part only. Changes are numbered by the printed parent chain.

# Block 1
# Target: Sal-like protein 4, full length isoform A (SALL4, Homo sapiens, UniProt Q9UJQ4, residues 1-1053)
# Chain of UniProt Q9UJQ4 (whole entry, looked up): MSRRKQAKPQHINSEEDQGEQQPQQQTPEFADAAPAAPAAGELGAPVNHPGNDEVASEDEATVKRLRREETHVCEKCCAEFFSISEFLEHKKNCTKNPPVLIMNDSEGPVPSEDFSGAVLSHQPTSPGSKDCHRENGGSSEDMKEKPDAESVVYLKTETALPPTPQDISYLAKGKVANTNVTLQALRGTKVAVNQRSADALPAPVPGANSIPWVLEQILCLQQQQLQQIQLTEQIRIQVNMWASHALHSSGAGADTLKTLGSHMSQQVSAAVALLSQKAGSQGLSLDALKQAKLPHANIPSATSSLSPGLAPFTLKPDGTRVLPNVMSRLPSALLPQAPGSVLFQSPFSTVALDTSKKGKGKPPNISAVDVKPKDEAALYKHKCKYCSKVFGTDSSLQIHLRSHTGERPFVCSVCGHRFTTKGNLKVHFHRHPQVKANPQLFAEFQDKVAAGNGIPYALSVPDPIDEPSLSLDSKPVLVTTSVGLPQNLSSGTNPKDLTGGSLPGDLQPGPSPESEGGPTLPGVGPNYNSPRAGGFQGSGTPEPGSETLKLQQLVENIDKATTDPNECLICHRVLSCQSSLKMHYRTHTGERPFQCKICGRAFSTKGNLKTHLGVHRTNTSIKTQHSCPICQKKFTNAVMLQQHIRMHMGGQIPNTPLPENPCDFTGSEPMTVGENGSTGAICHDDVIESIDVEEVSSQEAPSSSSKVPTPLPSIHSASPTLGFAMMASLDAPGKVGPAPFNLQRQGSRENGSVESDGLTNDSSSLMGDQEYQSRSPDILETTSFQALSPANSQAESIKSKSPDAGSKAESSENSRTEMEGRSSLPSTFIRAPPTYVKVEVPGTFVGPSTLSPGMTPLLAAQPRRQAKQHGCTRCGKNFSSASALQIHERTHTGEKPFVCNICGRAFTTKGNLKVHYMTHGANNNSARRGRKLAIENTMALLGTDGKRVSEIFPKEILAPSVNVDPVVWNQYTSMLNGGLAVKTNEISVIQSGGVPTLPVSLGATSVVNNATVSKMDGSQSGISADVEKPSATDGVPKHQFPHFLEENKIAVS
# Method: universal PBM
# Form: double-stranded DNA, one strand shown
# Sample: in vitro
# Concentration: 600 nM
# Notes: 8-mer, flanks averaged, mean of replicates
# Reading: higher = stronger binding
Sequence,E-score
GAAGGCCC,-0.266
AGTGCAAC,-0.107
CGAGCGTC,-0.231
AGATGAAA,0.186
GCGAAGCC,-0.305
AGAGCATC,-0.0571
ATTGCCGC,-0.0771
ATATTGAG,0.322
TGCGGCCA,-0.246
ATGCAGAC,-0.0502
AGCCAGGC,-0.312
CCTGGCGA,-0.242
ACCCTTAA,-0.00829
AACGCGAT,-0.0954
AGGTGGCA,-0.0637
AGCGGTGG,-0.328

# Block 2
# Target: CCND2, cyclin fold, Cln2 fusion (human)
# Method: yeast growth competition, sequencing
# Sample: yeast
# Notes: weak parent motif
# Reference: not given
# Reading: higher = stronger binding
# Starting sequence: DBF4 docking peptide (human); DDIVSKLVFDFVE
Variant,normalised enrichment score
F11A,-0.00791
K6A,-0.248
E13A,0.0738
S5A,-0.273
D10A,0.529
V12A,-0.156
F9A,0.0708

# Block 3
# Target: DBP, bZIP domain (human)
# Method: DHFR protein complementation
# Sample: yeast
# Notes: single substitutions, most at no-binding floor
# Reference: wild-type JUN-FOS pair
# Reading: higher = stronger binding
# Starting sequence: JUN, bZIP domain (human); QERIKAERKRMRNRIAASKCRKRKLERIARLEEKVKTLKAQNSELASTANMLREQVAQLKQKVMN; partner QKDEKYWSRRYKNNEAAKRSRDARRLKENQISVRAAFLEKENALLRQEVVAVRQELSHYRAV
Variant,binding fitness [natural log]
E32M,-1.54
Q41D,-1.49
A57L,-1.45
Q41M,-1.46
K39E,-1.44
E44S,-1.52
T37I,-1.6
L45G,-1.49
A40C,-1.55
V56T,-1.47
I28Y,-1.43
L52D,-1.49
M51P,-1.5
R53V,-1.45
L31A,-1.47
A46M,-1.27
L38N,-1.53
R53P,-1.48
K34H,-1.33
V35K,-1.51
E54N,-1.56
Q55S,-1.58
K39L,-1.45
S47R,-1.35
L38G,-1.49

# Block 4
# Target: Ras GTPase-activating protein-binding protein 1, full length (G3BP1, Homo sapiens, UniProt Q13283)
# Chain of UniProt Q13283 (whole entry, looked up): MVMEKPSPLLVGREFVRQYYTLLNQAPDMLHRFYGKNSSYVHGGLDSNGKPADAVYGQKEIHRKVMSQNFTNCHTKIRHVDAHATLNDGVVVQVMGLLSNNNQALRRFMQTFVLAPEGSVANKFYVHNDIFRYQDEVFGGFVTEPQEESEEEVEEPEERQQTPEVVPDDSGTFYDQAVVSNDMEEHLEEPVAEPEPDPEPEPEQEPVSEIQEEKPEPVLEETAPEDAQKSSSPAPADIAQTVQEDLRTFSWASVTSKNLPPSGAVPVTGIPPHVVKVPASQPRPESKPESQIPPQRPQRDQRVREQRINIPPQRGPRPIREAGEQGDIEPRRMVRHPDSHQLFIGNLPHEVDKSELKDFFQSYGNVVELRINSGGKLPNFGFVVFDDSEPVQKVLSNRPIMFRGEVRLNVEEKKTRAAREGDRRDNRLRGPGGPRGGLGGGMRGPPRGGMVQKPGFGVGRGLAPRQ
# Method: RNA Bind-n-Seq
# Form: RNA
# Sample: in vitro
# Concentration: 200 nM
# Notes: whole 134-nt RNA, ends assumed
# With: 150 mM LiCl
# Reference: input library
# Reading: higher = stronger binding
# Library: 7-deaza-guanosine replaces G
# All sequences stand within: GGGAGUUCUACAGUCCGACGAUC … UGGAAUUCUCGGGUGUCAAGG
Sequence,log2 enrichment
AGUCCUGUGCUACACAUCGUAUGUACCGAAUCGGGAAAAAGGGAAAAAAAGGGUGGGAAAGUAUUAUGUUACGCCGUUCGGAUCUGCACU,-0.693
AGUCCUGUGCUACACAUCGUAUGUACCGAAUCGGCCCCCGGGCCCCCGGCCCCCGGGAAAGUAUUAUGUUACGCCGUUCGGAUCUGCACU,-0.935
CCUGUGCUACACAUCGUAUGUACCGAAUCGGCCCCCCCGGCCCCCCCGGCCCCCCCGGGGAAAGUAUUAUGUUACGCCGUUCGGAUCUGC,0.278
UAAGGAUUCUAUCUGCUUACUGCUACAGACCUAUGUGUUAAGGAAUUCUUCUCCUCCUCCUUGCGUAGAAGUUGAUCAGCACUGUGGUCA,-0.188
UGGGAGGUGGAUUUUGUUUAUUUUUUUAGCUCAUUUCCGGGGGUGGGAAUUUUUUUUUAAUAUGUGUCAUGAAUAAAGUUGUUUUUGAAA,0.336
UCAAGUCCUGUGCUACACAUCGUAUGUACCGAAUCGGGGUUGGGGUUGGUUGGGAAAGUAUUAUGUUACGCCGUUCGGAUCUGCACUUCC,0.0804
GUCCUGUGCUACACAUCGUAUGUACCGAAUCGGGUUUUUUGGUUUUUUGGUUUUUUGGGAAAGUAUUAUGUUACGCCGUUCGGAUCUGCA,-1.02
UGUACUGAUGACAGCUAAUCUCUGAAUCUUUUUCCUCCAGGAUGUUCCUUCAGGAGGAAGCAGCACUAAAAGCACUCUGAGUCAAGAUGA,0.467

# Block 5
# Target: ABI1, truncated, D143A, DHFR fusion (Arabidopsis thaliana)
# Method: DHFR PCA, deep sequencing
# Sample: yeast
# Notes: methotrexate growth selection, single substitutions
# With: (+)-ABA 0.11 µM
# Reference: wild-type fitted maximum
# Reading: higher = stronger binding
# Starting sequence: PYL1, truncated, DHFR fusion (Arabidopsis thaliana); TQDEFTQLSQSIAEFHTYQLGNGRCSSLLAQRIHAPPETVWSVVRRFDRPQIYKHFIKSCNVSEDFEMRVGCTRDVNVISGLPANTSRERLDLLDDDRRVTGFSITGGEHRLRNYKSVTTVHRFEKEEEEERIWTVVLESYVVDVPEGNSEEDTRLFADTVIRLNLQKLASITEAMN; partner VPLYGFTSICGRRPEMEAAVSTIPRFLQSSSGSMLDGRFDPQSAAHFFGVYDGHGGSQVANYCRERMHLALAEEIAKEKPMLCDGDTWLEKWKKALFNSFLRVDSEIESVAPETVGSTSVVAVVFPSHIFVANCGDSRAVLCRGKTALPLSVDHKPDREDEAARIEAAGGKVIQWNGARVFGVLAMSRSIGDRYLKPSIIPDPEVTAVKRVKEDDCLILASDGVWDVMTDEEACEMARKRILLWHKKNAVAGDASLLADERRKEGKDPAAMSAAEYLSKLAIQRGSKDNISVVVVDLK
Variant,relative binding score [%]
T154N,-1.43
L112F,10.8
L28E,5.04
L169N,-4.88
L164S,12.7
V100K,-1.74
L29Y,-1.73
L91D,-2.45
S80W,57.3
S117P,5.97
S80K,1.07
N85L,58.1
P37K,-1.58
V70K,3.21
S9M,29.1
K116D,-1.16
S42T,1.76
D65F,4.88
L156E,1.22
R46V,0.132
L169W,-3.89
S9P,5.83
I57D,-5.47
Q19T,36.2

# Excerpt of the above (block 5):
Variant,relative binding score [%]
L29Y,-1.73
L91D,-2.45
S80W,57.3
S117P,5.97
S80K,1.07
